Results collected from several papers.
A part holds a random share of what one study measured. pEC50: −log10 of the molar value.
UniProt Q15349, sequence (whole entry, looked up): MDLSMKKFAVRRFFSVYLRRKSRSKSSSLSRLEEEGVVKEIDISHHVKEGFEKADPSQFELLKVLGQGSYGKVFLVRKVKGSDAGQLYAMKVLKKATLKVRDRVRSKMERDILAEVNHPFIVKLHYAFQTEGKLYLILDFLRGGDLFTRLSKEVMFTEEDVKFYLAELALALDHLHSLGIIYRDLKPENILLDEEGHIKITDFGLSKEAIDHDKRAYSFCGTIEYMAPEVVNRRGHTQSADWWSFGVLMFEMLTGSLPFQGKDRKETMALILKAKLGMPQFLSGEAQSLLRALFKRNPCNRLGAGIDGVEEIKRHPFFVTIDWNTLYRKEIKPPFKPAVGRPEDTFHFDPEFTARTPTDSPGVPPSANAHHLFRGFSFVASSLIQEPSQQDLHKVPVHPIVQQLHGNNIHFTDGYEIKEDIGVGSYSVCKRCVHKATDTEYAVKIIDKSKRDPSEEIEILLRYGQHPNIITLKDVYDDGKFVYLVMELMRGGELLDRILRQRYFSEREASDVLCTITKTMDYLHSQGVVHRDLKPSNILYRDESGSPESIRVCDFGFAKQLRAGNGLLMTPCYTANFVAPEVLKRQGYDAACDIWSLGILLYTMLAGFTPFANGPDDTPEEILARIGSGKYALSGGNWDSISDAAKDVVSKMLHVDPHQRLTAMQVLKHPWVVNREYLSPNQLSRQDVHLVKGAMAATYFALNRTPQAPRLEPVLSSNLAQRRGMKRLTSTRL
UniProt P06239, sequence (whole entry, looked up): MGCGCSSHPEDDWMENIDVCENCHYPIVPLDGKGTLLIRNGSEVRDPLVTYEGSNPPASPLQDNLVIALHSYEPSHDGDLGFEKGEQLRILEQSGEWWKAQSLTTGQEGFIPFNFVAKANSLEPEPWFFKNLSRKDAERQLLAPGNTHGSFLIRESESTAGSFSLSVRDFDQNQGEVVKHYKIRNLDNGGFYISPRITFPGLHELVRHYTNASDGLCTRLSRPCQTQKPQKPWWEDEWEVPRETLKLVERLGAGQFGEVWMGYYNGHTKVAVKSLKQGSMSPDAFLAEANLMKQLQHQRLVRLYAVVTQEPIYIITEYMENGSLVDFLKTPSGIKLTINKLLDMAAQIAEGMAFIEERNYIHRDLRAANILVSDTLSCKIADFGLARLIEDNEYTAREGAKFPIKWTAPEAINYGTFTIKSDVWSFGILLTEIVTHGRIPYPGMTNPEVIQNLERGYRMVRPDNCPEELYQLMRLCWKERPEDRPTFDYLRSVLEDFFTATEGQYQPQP
UniProt P78368, sequence (whole entry, looked up): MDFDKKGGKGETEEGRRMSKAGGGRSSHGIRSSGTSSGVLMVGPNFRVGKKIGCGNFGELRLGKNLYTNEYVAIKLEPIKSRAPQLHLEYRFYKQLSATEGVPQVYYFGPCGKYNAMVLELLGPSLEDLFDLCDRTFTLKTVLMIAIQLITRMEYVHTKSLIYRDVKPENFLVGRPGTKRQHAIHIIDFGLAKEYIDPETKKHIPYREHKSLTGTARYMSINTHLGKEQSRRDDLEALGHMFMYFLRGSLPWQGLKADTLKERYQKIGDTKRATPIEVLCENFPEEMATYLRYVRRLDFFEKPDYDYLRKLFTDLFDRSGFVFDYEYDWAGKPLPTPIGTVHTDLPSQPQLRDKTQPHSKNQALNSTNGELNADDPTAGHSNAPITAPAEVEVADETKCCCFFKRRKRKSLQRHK
UniProt P27361, sequence (whole entry, looked up): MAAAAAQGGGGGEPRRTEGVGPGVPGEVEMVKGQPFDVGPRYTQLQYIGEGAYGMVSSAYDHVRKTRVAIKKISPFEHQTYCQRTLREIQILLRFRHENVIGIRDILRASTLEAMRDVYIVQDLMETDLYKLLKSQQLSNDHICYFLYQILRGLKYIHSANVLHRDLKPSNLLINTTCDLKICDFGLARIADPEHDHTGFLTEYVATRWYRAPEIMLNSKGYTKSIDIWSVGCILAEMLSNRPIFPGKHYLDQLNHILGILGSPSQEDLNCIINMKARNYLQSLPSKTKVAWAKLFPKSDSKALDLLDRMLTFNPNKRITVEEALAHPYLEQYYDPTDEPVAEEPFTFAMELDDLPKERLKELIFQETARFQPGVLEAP
UniProt Q99558, sequence (whole entry, looked up): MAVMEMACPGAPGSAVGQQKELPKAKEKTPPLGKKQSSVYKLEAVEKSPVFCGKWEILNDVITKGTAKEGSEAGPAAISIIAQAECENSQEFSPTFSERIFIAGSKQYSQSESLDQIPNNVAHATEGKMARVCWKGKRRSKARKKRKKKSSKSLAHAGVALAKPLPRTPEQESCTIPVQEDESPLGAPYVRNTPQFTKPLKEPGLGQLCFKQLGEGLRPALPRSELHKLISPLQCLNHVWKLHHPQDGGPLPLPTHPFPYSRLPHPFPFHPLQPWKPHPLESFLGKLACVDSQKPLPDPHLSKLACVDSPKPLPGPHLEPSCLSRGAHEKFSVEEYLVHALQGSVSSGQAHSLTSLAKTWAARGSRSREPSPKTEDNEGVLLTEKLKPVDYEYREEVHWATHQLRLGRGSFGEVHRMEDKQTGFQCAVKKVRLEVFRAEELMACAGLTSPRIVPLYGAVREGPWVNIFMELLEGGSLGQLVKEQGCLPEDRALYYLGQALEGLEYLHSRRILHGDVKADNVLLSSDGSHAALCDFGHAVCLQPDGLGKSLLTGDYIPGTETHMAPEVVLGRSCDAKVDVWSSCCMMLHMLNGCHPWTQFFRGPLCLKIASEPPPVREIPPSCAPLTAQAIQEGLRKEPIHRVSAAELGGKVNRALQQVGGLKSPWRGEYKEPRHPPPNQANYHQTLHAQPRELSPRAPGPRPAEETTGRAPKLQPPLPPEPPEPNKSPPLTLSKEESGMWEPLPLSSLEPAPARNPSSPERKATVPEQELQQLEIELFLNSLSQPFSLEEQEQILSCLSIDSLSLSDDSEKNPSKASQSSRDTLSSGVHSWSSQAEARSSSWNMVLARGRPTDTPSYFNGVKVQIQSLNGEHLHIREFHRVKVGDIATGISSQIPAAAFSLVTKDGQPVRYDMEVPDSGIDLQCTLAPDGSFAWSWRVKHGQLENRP
UniProt Q96PY6, sequence (whole entry, looked up): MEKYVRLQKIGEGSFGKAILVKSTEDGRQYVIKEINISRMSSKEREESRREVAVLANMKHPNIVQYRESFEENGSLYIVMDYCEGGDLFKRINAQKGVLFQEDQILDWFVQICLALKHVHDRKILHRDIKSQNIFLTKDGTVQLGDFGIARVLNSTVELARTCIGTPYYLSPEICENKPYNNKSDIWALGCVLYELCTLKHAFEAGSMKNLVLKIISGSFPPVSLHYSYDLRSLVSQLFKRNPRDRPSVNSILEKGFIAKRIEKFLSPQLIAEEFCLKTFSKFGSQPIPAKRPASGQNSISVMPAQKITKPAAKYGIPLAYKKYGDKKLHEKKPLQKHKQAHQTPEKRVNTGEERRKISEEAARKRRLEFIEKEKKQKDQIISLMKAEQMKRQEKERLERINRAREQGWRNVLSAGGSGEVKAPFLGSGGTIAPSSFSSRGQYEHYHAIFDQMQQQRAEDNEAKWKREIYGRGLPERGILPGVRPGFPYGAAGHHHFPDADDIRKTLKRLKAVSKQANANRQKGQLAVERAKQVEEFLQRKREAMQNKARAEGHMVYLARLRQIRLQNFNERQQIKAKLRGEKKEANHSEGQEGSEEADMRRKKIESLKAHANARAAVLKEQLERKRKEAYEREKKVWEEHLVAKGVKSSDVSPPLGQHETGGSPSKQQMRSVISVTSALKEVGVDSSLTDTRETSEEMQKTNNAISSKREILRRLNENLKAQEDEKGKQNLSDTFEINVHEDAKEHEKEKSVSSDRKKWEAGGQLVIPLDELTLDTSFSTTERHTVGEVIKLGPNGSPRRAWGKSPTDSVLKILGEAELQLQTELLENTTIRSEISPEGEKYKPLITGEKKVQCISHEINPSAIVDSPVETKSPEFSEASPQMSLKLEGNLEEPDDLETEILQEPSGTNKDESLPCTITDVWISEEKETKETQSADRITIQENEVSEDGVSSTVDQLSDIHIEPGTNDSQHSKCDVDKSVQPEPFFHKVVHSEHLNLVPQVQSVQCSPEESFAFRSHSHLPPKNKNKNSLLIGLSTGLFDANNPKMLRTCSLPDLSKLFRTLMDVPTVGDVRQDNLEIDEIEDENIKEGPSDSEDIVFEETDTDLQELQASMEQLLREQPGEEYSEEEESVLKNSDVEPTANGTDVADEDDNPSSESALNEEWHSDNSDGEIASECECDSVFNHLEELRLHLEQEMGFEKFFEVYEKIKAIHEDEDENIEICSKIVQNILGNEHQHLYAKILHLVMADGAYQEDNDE
UniProt P11802, sequence (whole entry, looked up): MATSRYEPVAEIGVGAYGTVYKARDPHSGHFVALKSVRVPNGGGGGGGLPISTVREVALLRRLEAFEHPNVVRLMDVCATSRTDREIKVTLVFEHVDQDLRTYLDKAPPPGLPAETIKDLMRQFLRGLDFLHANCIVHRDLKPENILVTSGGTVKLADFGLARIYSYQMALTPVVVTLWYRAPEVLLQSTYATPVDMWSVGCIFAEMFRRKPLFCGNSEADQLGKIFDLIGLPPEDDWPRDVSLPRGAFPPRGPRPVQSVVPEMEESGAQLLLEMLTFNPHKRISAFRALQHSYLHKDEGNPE

Series 1 — mode: agonist
Target: Beta-1 adrenergic receptor (ADRB1, Homo sapiens, UniProt P08588)
UniProt P08588, sequence (whole entry, looked up): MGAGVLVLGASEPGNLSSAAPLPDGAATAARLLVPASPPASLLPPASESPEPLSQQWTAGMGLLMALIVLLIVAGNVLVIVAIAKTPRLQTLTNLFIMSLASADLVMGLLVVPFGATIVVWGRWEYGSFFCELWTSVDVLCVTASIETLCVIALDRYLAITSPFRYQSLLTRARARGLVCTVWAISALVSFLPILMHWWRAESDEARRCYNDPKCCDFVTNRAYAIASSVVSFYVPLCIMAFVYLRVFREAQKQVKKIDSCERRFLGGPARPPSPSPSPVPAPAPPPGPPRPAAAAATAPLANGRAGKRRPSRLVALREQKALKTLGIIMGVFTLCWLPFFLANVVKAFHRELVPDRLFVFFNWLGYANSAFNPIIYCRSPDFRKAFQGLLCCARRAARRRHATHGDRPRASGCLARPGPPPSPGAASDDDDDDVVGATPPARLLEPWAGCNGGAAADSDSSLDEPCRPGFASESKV
| SMILES | pEC50 |
| --- | --- |
| CN(C)c1ccc(CNC2(Cc3cc(-c4ccc(F)cc4)on3)COC2)cc1 | ≤ 4.00 |
| CN(C)c1cccc(-c2nc(N3CCOCC3)cc3c2CN(Cc2cnn(C)c2)C3=O)c1 | ≤ 4.00 |
| CN(C)c1cc(=O)c2ccnc(-c3ccc(O)c(F)c3)c2o1 | ≤ 4.00 |
| OC(COc1cccc2[nH]ccc12)Cn1cc(-n2cccc2)cn1 (stereo not shown) | ≤ 4.00 |
| CN(C)c1ccc(-c2nnnn2[C@H]2CO[C@H]3[C@@H]2OC[C@@H]3N[S+](=O)([O-])c2ccc3ccccc3c2)cc1 | ≤ 4.00 |
| Cc1ccc(C(=O)Nc2ccc(Oc3cc4cnn(C)c4cc3-c3cn[nH]c3)c(F)c2)c(=O)n1-c1ccc(F)cc1 | ≤ 4.00 |
| O=c1cc(N2CCNCC2)nc2sc(C(F)(F)F)nn12 | ≤ 4.00 |

Series 2 — effect on: cell-free assay; technique: competition with immobilised ligand; concentration: 1 µM
SMILES: CC(=O)Nc1c(C(C)=O)c(=O)n(C)c2nc(-c3ccc(Cl)cc3Cl)c(-c3ccc(Cl)cc3)cc12
| target | remaining binding [%] |
| --- | --- |
| PIK3CA (Homo sapiens, UniProt P42336) | 100 |
| MAPK7 (Homo sapiens, UniProt Q13164) | 100 |
| Cyclin-dependent kinase 4, with cyclin D1 (CDK4, Homo sapiens, UniProt P11802) | 100 |
| PHKG2 (Homo sapiens, UniProt P15735) | 100 |
| Tyrosine-protein kinase JAK1, JH1 (JAK1, Homo sapiens, UniProt P23458) | 100 |

Series 3 — organism: Sarcocystis neurona; effect on: parasite activity; concentration: 10 µM; time: 96 h
| Compound | activity class |
| --- | --- |
| O=C1NC(=O)C(c2ccccc2)(c2ccccc2)N1 | inactive |
| O=C1Nc2ccc(Cl)cc2[C@@](C#CC2CC2)(C(F)(F)F)O1 | inactive |
| CC(=O)SCC(Cc1ccccc1)C(=O)NCC(=O)OCc1ccccc1 (stereo not shown) | inactive |
| CC(=O)Oc1ccccc1C(=O)Nc1ncc([N+](=O)[O-])s1 | inactive |
| COc1cc(-c2ccc(=O)[nH]n2)ccc1OC(F)F | inactive |

Series 4 — SMILES: Nc1ccc2ncnc(NCCc3ccc(Oc4ccccc4)cc3)c2c1; effect on: enzyme activity; mode: inhibitor; concentration: 0.5 µM; reference: control
| target | remaining activity [%] |
| --- | --- |
| EPHA3 (Homo sapiens, UniProt P29320) | 102 |
| ACVR1B (Homo sapiens, UniProt P36896) | 101 |
| WEE1 (Homo sapiens, UniProt P30291) | 86.2 |
| MAPK3 (Homo sapiens, UniProt P27361) | 105 |
| CSNK1G2 (Homo sapiens, UniProt P78368) | 100 |
| TAOK2 (Homo sapiens, UniProt Q9UL54) | 102 |
| FRK (Homo sapiens, UniProt P42685) | 100 |
| NEK1 (Homo sapiens, UniProt Q96PY6) | 102 |
| FGFR1 (Homo sapiens, UniProt P11362) | 86.3 |
| MST1R (Homo sapiens, UniProt Q04912) | 97.2 |
| LCK (Homo sapiens, UniProt P06239) | 98.3 |
| RPS6KA2 (Homo sapiens, UniProt Q15349) | 100 |
| MAP3K14 (Homo sapiens, UniProt Q99558) | 109 |
| JAK3 (Homo sapiens, UniProt P52333) | 96.9 |

Excerpt of the above (series 1):
| SMILES | pEC50 |
| --- | --- |
| CN(C)c1cccc(-c2nc(N3CCOCC3)cc3c2CN(Cc2cnn(C)c2)C3=O)c1 | ≤ 4.00 |
| CN(C)c1ccc(CNC2(Cc3cc(-c4ccc(F)cc4)on3)COC2)cc1 | ≤ 4.00 |
| CN(C)c1cc(=O)c2ccnc(-c3ccc(O)c(F)c3)c2o1 | ≤ 4.00 |
| O=c1cc(N2CCNCC2)nc2sc(C(F)(F)F)nn12 | ≤ 4.00 |
